Experimental data from different studies.
± gives the spread as reported.

CC(C)N1Cc2cc(C(F)(F)F)ncc2C2=CN=C(NCc3c(F)ccc4c3CCO4)N3C=NC(C1=O)C23 (stereo not drawn)  Cmax (CD1 mouse, male, plasma; oral, 10 mg/kg): 9630 nM
COc1cc([C@@H]2Oc3c(O)cc([C@H]4Oc5cc(O)cc(O)c5C(=O)[C@@H]4O)cc3[C@H]2CO)ccc1O  Cmax (FVB wild-type mouse, plasma; oral gavage, 500 mg/kg silymarin): not detected
Cc1cc(NC2Cc3cc(F)c(F)cc3C2)n2nc(C(C)(F)F)nc2n1  Cmax (NSG mouse, whole blood; oral, 10 mg/kg): 10300 nM
CC(=O)NCc1cc2c(cc1F)C(=O)N(C1CCC(=O)NC1=O)C2 (stereo not drawn)  Cmax (male CD-1 mouse, plasma; oral, 10 mg/kg of parent drug): 5.6 ± 2.7 ng/mL
O=C(O)C[C@H](O)C[C@H](O)/C=C/c1c(C2CC2)nc2ccccc2c1-c1ccc(F)cc1  Cmax (FVB wild-type mouse, plasma; oral, 5 mg/kg, together with: rifampin 20 mg/kg oral): 145 nM
CC(C)n1ncc2c(C(=O)NCC3(C)CNC3)cc(C3CC3)nc21  Cmax (female BALB/c mouse, plasma; intraperitoneal, 50 mg/kg): 7000 nM
O=C(NCCN1CCCC1)c1cc(-c2ccc(CN3CCOCC3)cc2)nc2ccc(F)cc12  Cmax (NMRI mouse Plasmodium berghei-infected, blood; oral, 0.3 mg/kg, monotherapy): 18 nM
CN1CCC[C@H](CN2c3ccccc3Sc3ccccc32)C1.Cl  Cmax (fasted female ICR mouse, brain; oral, 16 mg/kg): 4340 ng/g
CC(=O)N(C)C1CCN(c2cc(F)cc(NC(=O)c3cc4c(F)ccc(C)c4[nH]3)c2)C1 (stereo not drawn)  Cmax (CD1 mouse; oral, 50 mg/kg): 39.4 ng/mL
CC[C@H](C)[C@@H]1NC(=O)[C@@](C)(NC(=O)[C@H](CCCNC(=N)N)NC(=O)[C@H](CC(C)C)NC(=O)[C@@H](NC(=O)[C@H](CCC(N)=O)NC(=O)[C@H](CC(C)C)NC(C)=O)[C@@H](C)O)CCCC=CCCC[C@@](C)(C(=O)N[C@@H](CC(C)C)C(=O)N[C@@H](Cc2ccc3ccccc3c2)C(N)=O)NC(=O)[C@H](CCCNC(=N)N)NC(=O)[C@H](CCC(N)=O)NC1=O  Cmax (BALB/c mouse; intraperitoneal, 10 mg/kg once daily, day 14, dosed for 14 days): 11400 ng/mL
CCOC(=O)C1=C(CN2CCC[C@@H]2C(=O)Nc2ccc(B(O)O)cc2)NC(c2nccs2)=N[C@H]1c1ccc(F)cc1Br  Cmax (ICR mouse, plasma; intravenous, 2 mg/kg): 1530 ± 241 ng/mL
CNC(=O)c1cc(Oc2ccc(NC(=O)N(c3ccc(Cl)c(C(F)(F)F)c3)[C@@H]3O[C@H](C(=O)O)[C@@H](O)[C@H](O)[C@H]3O)cc2)ccn1  Cmax (mouse, wild type, plasma; oral, 10 mg/kg, without rifampin, geometric mean): 880 ng/mL
COc1cc([C@@H]2Oc3c(O)ccc([C@H]4Oc5cc(O)cc(O)c5C(=O)[C@@H]4O)c3[C@H]2CO)ccc1O  Cmax (FVB wild-type mouse, plasma; oral gavage, 500 mg/kg silymarin): not detected
CN(C)C(=O)c1cc2cnc(Nc3ccc(-c4ccc5c(=O)cc(N6CCOCC6)oc5c4)cc3)nc2n1C1CCCC1.Cl  Cmax (BALB/c mouse, plasma; oral, 20 mg/kg): 3310 ± 1270 ng/mL
CN[C@H](CC(C)C)C(=O)N[C@H]1C(=O)N[C@@H](CC(N)=O)C(=O)N[C@H]2C(=O)N[C@H]3C(=O)N[C@H](C(=O)N[C@H](C(=O)O)c4cc(O)cc(O)c4-c4cc3ccc4O)[C@H](O)c3ccc(c(Cl)c3)Oc3cc2cc(c3O[C@@H]2O[C@H](CO)[C@@H](O)[C@H](O)[C@H]2O[C@H]2C[C@](C)(N)[C@H](O)[C@H](C)O2)Oc2ccc(cc2Cl)[C@H]1O  Cmax (C57BL/6N mouse H1, faeces, wet weight; po, 0.5 mL, 20 mg/mL solution): 1.4e+07 ng/g
Nc1nnc(-c2ccccc2O)cc1N1CCN(Cc2ccc(OCCOCCNc3cccc4c3C(=O)N(C3CCC(=O)NC3=O)C4=O)c(F)c2)CC1 (stereo not drawn)  Cmax (mouse, plasma; intraperitoneal, 50 mg/kg single dose, together with: ritonavir 12.5 mg/kg): 5400 nM
Cc1[nH]c(C)c(S(=O)(=O)Nc2ccc(C(F)(F)F)c(Cl)c2)c1C(=O)N1CCC(F)(F)C1  Cmax (mouse CD-1 male, plasma; intraperitoneal, 40 mg/kg): 28000 nM
CN1CCCC1CCNS(=O)(=O)c1ccc2c(c1)CN(CC1CCCCC1)CC2 (stereo not drawn)  Cmax (mouse C57BL/6J male, plasma; oral, 10 mg/kg, single dose in methylcellulose/Tween): 135 ng/mL
COc1ccc(C[C@H](NC(=O)[C@H](C)NC(=O)CN2CCOCC2)C(=O)N[C@@H](Cc2ccccc2)C(=O)C2(C)CO2)cc1 (stereo in doubt)  Cmax (BALB/c mouse; oral, 20 mg/kg single): 18000 nM
Cc1cc(NC2CCc3cc(Cl)ccc3C2)n2nc(C(C)(F)F)nc2n1 (stereo not drawn)  Cmax (NSG mouse, whole blood; oral, 10 mg/kg): 1190 nM
C=CCn1c(=O)c2cnc(Nc3ccc(N4CCN(C)CC4)cc3)nc2n1-c1ccc2c(n1)[C@@](O)(CC)CC2  Cmax (female NOD/SCID mouse OVCAR-3 xenograft, plasma; oral, 80 mg/kg once daily, :2): 4730 ng/mL
CNC(=O)c1cc(Oc2ccc(NC(=O)Nc3ccc(Cl)c(C(F)(F)F)c3)cc2)cc[n+]1[O-]  Cmax (mouse, wild type, plasma; oral, 10 mg/kg, without rifampin, geometric mean): 29 ng/mL
CC1(C)c2nc(-c3ccc(F)cc3)c(Nc3ccc(F)cc3)n2CCN1C(=O)CN  Cmax (NMRI mouse Plasmodium berghei-infected, blood; oral, 2 mg/kg, monotherapy): 367 nM
Cc1cc(N[C@H]2CCc3ccc(Cl)cc3C2)n2nc(C(C)(F)F)nc2n1  Cmax (NSG mouse, whole blood; oral, 10 mg/kg): 770 nM
Cc1nc2c(n1CCCN1CCCCC1)C(=O)c1ccccc1C2=O  Cmax (C57BL/6 mouse, plasma; oral, 20 mg/kg): 697 nM
O=c1c2cc(Cl)c(CO)cc2[nH]c(=S)n1Cc1cccnc1  Cmax (mouse; oral, 50 mg/kg): 68 ng/mL
CCO[C@H]1CCN(Cc2c(OC)cc(C)c3[nH]ccc23)[C@H](c2ccc(C(=O)O)cc2)C1  Cmax (C57BL/6 mouse; 10 mg/kg, dose-normalised to 1 mg/kg): 224 nM

Repeated from above:
CC(C)n1ncc2c(C(=O)NCC3(C)CNC3)cc(C3CC3)nc21  Cmax (female BALB/c mouse, plasma; intraperitoneal, 50 mg/kg): 7000 nM
O=C(NCCN1CCCC1)c1cc(-c2ccc(CN3CCOCC3)cc2)nc2ccc(F)cc12  Cmax (NMRI mouse Plasmodium berghei-infected, blood; oral, 0.3 mg/kg, monotherapy): 18 nM
CN1CCC[C@H](CN2c3ccccc3Sc3ccccc32)C1.Cl  Cmax (fasted female ICR mouse, brain; oral, 16 mg/kg): 4340 ng/g
